# Assay results gathered from unrelated publications.
# A part holds a random share of what one study measured. Several values in a cell are separate wells, animals, samples, runs or records.
# UniProt P54132, sequence (whole entry, looked up): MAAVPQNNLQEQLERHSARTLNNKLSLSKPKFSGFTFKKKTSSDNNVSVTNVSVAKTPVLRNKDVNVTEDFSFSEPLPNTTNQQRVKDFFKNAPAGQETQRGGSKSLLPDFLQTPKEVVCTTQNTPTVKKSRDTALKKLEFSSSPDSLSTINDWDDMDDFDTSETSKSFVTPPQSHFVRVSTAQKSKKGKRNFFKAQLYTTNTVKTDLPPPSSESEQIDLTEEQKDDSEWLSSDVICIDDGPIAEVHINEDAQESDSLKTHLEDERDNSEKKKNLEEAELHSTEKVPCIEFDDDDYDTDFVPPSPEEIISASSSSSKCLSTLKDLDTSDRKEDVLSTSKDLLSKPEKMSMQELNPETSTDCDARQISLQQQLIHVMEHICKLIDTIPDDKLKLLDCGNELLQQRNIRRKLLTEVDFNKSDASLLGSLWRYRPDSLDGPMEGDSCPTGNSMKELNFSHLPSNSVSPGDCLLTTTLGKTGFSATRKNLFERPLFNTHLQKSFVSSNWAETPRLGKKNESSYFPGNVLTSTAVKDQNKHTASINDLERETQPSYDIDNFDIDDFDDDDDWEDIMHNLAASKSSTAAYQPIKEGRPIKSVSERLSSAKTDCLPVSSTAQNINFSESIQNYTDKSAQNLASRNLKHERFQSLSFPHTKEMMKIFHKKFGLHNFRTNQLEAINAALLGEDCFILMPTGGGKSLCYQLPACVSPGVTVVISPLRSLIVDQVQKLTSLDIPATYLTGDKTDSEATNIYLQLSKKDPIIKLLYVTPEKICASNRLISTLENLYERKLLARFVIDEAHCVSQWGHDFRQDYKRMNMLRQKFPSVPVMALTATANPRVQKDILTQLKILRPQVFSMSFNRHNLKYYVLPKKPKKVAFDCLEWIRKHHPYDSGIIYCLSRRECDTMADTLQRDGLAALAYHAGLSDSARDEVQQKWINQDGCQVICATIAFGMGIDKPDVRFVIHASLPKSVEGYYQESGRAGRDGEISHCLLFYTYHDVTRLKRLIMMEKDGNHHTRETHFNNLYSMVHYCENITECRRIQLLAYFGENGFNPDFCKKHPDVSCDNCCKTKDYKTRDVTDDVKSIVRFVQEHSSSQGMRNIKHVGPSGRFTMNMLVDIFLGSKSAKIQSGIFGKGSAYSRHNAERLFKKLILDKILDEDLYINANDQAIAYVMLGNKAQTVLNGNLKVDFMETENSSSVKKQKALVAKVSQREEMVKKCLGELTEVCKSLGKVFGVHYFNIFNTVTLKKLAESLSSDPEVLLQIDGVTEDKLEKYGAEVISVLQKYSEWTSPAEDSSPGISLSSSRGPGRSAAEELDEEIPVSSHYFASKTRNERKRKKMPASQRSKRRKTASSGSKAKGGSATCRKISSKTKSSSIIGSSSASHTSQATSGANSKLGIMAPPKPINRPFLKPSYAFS
# UniProt P42336, sequence (whole entry, unmodified, looked up): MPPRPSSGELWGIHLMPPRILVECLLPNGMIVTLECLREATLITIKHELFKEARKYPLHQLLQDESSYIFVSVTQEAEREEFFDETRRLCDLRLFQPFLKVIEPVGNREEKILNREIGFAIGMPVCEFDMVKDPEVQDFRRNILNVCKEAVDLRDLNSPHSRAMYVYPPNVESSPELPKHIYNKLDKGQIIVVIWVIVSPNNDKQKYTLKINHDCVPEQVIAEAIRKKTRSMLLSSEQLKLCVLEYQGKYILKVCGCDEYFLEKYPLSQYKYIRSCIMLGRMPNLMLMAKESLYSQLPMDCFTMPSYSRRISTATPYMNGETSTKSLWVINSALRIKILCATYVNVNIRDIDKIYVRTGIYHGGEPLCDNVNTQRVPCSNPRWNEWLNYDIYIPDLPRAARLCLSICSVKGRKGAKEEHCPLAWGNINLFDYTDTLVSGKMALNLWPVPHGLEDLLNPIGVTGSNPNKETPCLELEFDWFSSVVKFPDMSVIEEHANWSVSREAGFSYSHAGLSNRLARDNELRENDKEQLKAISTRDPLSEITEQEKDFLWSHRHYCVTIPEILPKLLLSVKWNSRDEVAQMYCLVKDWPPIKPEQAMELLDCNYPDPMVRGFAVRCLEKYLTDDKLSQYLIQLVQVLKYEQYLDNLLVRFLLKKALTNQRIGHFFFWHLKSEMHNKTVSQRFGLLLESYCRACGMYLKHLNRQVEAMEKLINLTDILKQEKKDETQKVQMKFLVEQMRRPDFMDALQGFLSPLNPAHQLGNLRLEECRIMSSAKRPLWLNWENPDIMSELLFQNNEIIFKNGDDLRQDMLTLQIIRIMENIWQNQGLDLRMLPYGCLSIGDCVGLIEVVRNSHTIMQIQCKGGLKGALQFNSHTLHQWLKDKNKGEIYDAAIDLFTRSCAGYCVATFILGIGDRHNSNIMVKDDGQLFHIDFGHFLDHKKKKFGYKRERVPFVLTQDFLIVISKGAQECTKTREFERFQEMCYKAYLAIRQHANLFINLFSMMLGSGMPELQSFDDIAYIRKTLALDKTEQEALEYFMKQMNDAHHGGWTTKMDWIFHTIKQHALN
# UniProt P07949, sequence (whole entry, unmodified, looked up): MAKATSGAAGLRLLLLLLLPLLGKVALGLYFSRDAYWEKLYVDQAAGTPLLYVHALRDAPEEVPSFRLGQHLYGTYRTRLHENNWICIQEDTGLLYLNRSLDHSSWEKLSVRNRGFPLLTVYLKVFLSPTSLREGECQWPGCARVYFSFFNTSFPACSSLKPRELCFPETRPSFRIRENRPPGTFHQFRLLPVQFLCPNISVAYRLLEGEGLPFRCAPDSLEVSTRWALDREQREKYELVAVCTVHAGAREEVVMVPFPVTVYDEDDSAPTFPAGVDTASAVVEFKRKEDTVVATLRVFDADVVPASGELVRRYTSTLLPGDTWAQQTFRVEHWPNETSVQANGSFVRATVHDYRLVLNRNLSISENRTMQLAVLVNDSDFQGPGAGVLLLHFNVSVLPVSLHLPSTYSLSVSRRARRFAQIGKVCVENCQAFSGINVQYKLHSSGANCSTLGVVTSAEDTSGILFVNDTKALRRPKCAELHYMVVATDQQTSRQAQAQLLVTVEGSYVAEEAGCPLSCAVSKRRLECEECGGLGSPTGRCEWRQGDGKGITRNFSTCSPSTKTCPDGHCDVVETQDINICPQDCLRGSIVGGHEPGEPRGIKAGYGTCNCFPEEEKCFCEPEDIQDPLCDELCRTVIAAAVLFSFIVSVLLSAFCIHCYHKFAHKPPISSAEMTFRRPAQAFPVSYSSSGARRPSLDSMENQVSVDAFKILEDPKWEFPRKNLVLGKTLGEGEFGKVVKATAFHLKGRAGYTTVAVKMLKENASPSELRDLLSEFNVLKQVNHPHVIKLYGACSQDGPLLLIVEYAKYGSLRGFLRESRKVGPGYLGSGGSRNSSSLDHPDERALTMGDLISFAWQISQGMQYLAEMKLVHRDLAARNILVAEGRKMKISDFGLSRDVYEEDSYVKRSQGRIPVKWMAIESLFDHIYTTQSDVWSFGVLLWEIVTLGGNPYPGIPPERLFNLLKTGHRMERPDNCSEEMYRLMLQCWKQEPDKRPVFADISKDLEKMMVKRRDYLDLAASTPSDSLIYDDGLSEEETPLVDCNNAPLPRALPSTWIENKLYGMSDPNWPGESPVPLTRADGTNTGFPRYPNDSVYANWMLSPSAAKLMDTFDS
# UniProt P11309, sequence (whole entry, looked up): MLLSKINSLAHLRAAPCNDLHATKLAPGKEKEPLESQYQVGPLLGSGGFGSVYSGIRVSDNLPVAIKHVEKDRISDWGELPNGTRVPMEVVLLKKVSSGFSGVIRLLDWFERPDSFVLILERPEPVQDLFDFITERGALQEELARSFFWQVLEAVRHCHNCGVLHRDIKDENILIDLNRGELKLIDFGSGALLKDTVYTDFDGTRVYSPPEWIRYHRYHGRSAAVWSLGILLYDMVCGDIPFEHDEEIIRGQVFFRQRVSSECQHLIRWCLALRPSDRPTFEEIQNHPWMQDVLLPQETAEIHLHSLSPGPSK

# Series 1 — SMILES: O=C(Nc1ccccc1)Nc1cccc(Oc2ccc3nccn3n2)c1; technique: competitive binding panel; concentration: 1 µM; reference: vehicle
target,remaining binding [%]
"BMPR1B (Homo sapiens, UniProt O00238)",100
"MYLK2 (Homo sapiens, UniProt Q9H1R3)",100
"CAMK2A (Homo sapiens, UniProt Q9UQM7)",100
"NEK4 (Homo sapiens, UniProt P51957)",100
"ULK1 (Homo sapiens, UniProt O75385)",100
"CAMK1 (Homo sapiens, UniProt Q14012)",100
"PIK3CA (Homo sapiens, UniProt P42336, M1043I)",100
"FGFR1 (Homo sapiens, UniProt P11362)",87

# Series 2 — effect on: ATPase activity; technique: ADP-Glo; reference: DMSO
# Structure (SMILES): CO[C@@H]1[C@@H](OC(N)=O)[C@@H](O)[C@H](Oc2ccc3c(O)c(NC(=O)c4ccc(O)c(CC=C(C)C)c4)c(=O)oc3c2C)OC1(C)C
# SMARCAL1: SWI/SNF-related matrix-associated actin-dependent regulator of chromatin subfamily A-like protein 1 (SMARCAL1, Homo sapiens, UniProt Q9NZC9)
# UniProt Q9NZC9, sequence (whole entry, looked up): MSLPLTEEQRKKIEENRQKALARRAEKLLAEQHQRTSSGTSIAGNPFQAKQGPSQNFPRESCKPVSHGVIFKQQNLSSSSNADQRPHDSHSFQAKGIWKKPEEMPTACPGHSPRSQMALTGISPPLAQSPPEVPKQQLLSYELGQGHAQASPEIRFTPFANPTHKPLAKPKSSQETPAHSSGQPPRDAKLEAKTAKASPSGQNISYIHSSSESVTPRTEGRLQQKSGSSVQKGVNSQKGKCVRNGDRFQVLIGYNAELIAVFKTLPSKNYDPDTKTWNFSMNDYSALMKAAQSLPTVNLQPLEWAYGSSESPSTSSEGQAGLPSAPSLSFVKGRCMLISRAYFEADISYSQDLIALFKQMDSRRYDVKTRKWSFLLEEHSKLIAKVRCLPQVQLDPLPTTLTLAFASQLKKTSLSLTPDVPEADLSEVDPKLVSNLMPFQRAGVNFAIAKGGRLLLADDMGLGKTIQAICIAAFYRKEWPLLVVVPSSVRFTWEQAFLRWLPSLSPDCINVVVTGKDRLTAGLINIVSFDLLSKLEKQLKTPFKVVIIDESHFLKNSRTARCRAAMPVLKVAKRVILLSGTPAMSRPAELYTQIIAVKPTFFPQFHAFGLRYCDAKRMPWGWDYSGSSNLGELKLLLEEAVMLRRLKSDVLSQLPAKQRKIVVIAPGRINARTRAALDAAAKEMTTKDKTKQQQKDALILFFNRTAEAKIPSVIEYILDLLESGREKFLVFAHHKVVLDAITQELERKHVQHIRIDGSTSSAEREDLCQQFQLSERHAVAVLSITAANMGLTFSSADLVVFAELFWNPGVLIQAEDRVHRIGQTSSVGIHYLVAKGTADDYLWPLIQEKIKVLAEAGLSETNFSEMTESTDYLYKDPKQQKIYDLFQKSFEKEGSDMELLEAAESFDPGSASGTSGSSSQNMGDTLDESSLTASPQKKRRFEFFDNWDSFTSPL
target,concentration,remaining activity
"BLM (Homo sapiens, UniProt P54132)",25 µM,93.3% and 96.7% and 103% and 97.3% and 102%
"HSP90AA1 (Homo sapiens, UniProt P07900)",50 µM,99.4% and 83.2% and 103% and 87.1% and 101%
SMARCAL1,50 µM,95% and 96.1% and 98.4% and 107% and 101% and 94.7%
SMARCAL1,25 µM,99.8% and 104% and 101% and 97.2% and 99.6%

# Series 3 — Structure (SMILES): CC(=O)c1ccc(N2CCOCC2)cc1O; effect on: enzyme activity; action: inhibitor; concentration: 0.5 µM; reference: control
target,remaining activity [%]
"RPS6KA4 (Homo sapiens, UniProt O75676)",103
"PNCK (Homo sapiens, UniProt Q6P2M8)",103
"GRK4 (Homo sapiens, UniProt P32298)",106
"PRKG2 (Homo sapiens, UniProt Q13237)",107
"MINK1 (Homo sapiens, UniProt Q8N4C8)",94.3
"MAPK11 (Homo sapiens, UniProt Q15759)",99.8
"KDR (Homo sapiens, UniProt P35968)",97.7
"Cyclin-dependent kinase 9, with cyclin K (CDK9, Homo sapiens, UniProt P50750)",106
"ROCK1 (Homo sapiens, UniProt Q13464)",92.9
"CLK3 (Homo sapiens, UniProt P49761)",101
"Cyclin-dependent kinase 1, with cyclin A (CDK1, Homo sapiens, UniProt P06493)",99.8
"MAPK1 (Homo sapiens, UniProt P28482)",97.6
"MET (Homo sapiens, UniProt P08581)",122
"NEK3 (Homo sapiens, UniProt P51956)",103

# Series 4 — effect on: cell-free assay; technique: competition with immobilised ligand; concentration: 1 µM
# SMILES: CCC(=O)N[C@@H]1CC[C@H](C(=O)N(C)c2ccc(-c3nc4ccccc4o3)cc2)C1
target,remaining binding
"PIK3CA (Homo sapiens, UniProt P42336, E545A)",77%
"DAPK2 (Homo sapiens, UniProt Q9UIK4)",100%
"MAP3K10 (Homo sapiens, UniProt Q02779)",78%
"KIT (Homo sapiens, UniProt P10721, L576P)",100%
"SRMS (Homo sapiens, UniProt Q9H3Y6)",84%
"EGFR (Homo sapiens, UniProt P00533)",100%
"RET (Homo sapiens, UniProt P07949, V804L)",100%
"PIM1 (Homo sapiens, UniProt P11309)",100%
"RIPK2 (Homo sapiens, UniProt O43353)",85%

# For quick reference, copied from above (series 1):
target,remaining binding [%]
"CAMK2A (Homo sapiens, UniProt Q9UQM7)",100
"NEK4 (Homo sapiens, UniProt P51957)",100
"PIK3CA (Homo sapiens, UniProt P42336, M1043I)",100
"CAMK1 (Homo sapiens, UniProt Q14012)",100
"MYLK2 (Homo sapiens, UniProt Q9H1R3)",100
